Published values of several laboratories.
Parts stem from different laboratories: compare values within a part only.
UniProt P06241, sequence (whole entry, looked up): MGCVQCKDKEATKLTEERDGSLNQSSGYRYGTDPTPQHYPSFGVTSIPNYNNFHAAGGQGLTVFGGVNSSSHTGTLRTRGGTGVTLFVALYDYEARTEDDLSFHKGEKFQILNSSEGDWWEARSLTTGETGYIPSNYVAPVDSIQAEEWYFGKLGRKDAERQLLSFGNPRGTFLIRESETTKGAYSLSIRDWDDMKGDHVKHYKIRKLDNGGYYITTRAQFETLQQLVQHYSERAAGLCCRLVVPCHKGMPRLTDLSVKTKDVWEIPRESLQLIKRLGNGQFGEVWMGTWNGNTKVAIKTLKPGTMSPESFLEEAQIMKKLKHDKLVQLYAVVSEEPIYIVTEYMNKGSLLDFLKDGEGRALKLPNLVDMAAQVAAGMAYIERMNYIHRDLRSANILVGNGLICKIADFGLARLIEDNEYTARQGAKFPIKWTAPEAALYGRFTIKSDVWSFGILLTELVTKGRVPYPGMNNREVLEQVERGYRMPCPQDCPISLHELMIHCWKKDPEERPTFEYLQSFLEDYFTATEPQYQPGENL

Study 1 — organism: Saccharomyces cerevisiae; read-out: binding; method: competitive growth deep sequencing; molecule type: peptide; strain: cyclin E1-Cln2 fusion strain; tested at: concentration not given; notes: peptide tiling library; direction: direction not given
Sequence	growth enrichment score
SSEVARHLLFQSHM	-0.194
KPITLDTTDFQESFVT	0.121
PLRKAKRARLCSSSSS	0.529
PARRRLRLSVDEVSSP	0.101
VLLKRLQDVVSERANH	-0.0662
PAKRRLELGE	0.398
KRCATPVIIDEILPSK	0.866
AIRKMREDRWAVIAKM	0.0796

Study 2 — method: protein-binding microarray; molecule type: hairpin DNA; matrix: in vitro; tested at: not given; baseline: not given; direction: higher = stronger binding
Target: Homeobox protein Hox-B13, full length (HOXB13, Homo sapiens, UniProt Q92826, residues 1-284)
UniProt Q92826, sequence (whole entry, looked up): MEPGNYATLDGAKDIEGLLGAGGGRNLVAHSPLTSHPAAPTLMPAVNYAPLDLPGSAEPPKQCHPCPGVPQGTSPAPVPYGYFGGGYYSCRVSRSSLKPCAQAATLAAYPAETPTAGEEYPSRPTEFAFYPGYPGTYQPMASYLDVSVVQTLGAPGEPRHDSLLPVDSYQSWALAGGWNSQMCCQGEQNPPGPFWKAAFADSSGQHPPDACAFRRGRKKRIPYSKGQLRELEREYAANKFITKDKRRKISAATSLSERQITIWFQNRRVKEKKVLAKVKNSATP
Notes: whole hairpin DNA, median over replicate spots
Sequence	median fluorescence [a.u.]
GAGGCCGTTTTACGACGGCCTCCTGGCCGTCGTAAAACGGCCTCACACTC (5mC at 16 28)	4430
GAGGCCGTTTTACCGGGGCCTCCTGGCCCCGGTAAAACGGCCTCACACTC	4280
GAGGCCGTTTTATTGCGGCCTCCTGGCCGCAATAAAACGGCCTCACACTC	4600
GAGGCCGTTTTATTCGGGCCTCCTGGCCCGAATAAAACGGCCTCACACTC (5mC at 15)	3850
GAGGCCGTTTTATTGGGGCCTCCTGGCCCCAATAAAACGGCCTCACACTC (5mC at 28)	5030
GAGGCCGTTTTGCGAGGGCCTCCTGGCCCTCGCAAAACGGCCTCACACTC (5mC at 33)	4300
GAGGCCTTTTTACGAGGGCCTCCTGGCCCTCGTAAAAAGGCCTCACACTC	4890
GAGGCCGTTCGATTGGGGCCTCCTGGCCCCAATCGAACGGCCTCACACTC (5mC at 10)	4060

Study 3 — method: RNA Bind-n-Seq; molecule type: RNA; matrix: in vitro; tested at: 90 pmol; notes: 4-mer, random 30-nt RNA, single round; baseline: input library; direction: higher = stronger binding
Target: ATP-dependent RNA helicase DDX3X, helicase core (DDX3X, Homo sapiens, UniProt O00571, residues 132-607)
UniProt O00571, sequence (132-607, looked up): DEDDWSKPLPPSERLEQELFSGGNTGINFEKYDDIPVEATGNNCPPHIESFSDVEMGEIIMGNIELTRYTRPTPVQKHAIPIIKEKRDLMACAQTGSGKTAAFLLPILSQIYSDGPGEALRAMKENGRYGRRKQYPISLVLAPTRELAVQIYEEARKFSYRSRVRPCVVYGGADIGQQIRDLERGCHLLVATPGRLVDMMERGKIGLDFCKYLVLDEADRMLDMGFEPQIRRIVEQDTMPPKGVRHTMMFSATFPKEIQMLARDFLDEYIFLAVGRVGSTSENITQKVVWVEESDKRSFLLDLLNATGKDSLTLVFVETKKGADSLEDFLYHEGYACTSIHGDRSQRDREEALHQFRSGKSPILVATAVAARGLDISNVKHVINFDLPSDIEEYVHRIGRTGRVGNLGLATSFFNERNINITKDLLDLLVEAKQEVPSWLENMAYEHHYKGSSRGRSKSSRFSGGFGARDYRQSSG
With: 3 µM iPr-DMDA-PatA, 2 mM ADP, 2 mM phosphate
Sequence	4-mer enrichment
CCGG	0.769 fold
AGAC	1.3 fold
UGGA	1.06 fold
UAAC	1.15 fold
UCUG	0.815 fold
UAUU	1.15 fold
CGAC	1.02 fold
AGUG	1.03 fold

Single results of other studies
SMILES	target	read-out	method	tested at	measurement	result
Cn1nc(C(F)(F)F)cc1-c1cnc(N2CCc3cc(S(=O)(=O)Nc4c(F)cc(Cl)cc4F)cc(N4CCCC4=O)c32)nc1	Tyrosine-protein kinase Fyn (FYN, Homo sapiens, UniProt P06241)	cell-free assay	competition with immobilised ligand	1 µM	remaining binding	94%

For quick reference, copied from above (study 2):
Sequence	median fluorescence [a.u.]
GAGGCCGTTTTGCGAGGGCCTCCTGGCCCTCGCAAAACGGCCTCACACTC (5mC at 33)	4300
GAGGCCGTTTTATTGGGGCCTCCTGGCCCCAATAAAACGGCCTCACACTC (5mC at 28)	5030
